# Experimental data from different studies.
# Lines come from different studies, so protocols differ. Values joined by “and” are separate records of one study, mostly repeats; a detail may differ. ± marks the error that the study gave.
# Chain of UniProt Q5S007 (whole entry, looked up): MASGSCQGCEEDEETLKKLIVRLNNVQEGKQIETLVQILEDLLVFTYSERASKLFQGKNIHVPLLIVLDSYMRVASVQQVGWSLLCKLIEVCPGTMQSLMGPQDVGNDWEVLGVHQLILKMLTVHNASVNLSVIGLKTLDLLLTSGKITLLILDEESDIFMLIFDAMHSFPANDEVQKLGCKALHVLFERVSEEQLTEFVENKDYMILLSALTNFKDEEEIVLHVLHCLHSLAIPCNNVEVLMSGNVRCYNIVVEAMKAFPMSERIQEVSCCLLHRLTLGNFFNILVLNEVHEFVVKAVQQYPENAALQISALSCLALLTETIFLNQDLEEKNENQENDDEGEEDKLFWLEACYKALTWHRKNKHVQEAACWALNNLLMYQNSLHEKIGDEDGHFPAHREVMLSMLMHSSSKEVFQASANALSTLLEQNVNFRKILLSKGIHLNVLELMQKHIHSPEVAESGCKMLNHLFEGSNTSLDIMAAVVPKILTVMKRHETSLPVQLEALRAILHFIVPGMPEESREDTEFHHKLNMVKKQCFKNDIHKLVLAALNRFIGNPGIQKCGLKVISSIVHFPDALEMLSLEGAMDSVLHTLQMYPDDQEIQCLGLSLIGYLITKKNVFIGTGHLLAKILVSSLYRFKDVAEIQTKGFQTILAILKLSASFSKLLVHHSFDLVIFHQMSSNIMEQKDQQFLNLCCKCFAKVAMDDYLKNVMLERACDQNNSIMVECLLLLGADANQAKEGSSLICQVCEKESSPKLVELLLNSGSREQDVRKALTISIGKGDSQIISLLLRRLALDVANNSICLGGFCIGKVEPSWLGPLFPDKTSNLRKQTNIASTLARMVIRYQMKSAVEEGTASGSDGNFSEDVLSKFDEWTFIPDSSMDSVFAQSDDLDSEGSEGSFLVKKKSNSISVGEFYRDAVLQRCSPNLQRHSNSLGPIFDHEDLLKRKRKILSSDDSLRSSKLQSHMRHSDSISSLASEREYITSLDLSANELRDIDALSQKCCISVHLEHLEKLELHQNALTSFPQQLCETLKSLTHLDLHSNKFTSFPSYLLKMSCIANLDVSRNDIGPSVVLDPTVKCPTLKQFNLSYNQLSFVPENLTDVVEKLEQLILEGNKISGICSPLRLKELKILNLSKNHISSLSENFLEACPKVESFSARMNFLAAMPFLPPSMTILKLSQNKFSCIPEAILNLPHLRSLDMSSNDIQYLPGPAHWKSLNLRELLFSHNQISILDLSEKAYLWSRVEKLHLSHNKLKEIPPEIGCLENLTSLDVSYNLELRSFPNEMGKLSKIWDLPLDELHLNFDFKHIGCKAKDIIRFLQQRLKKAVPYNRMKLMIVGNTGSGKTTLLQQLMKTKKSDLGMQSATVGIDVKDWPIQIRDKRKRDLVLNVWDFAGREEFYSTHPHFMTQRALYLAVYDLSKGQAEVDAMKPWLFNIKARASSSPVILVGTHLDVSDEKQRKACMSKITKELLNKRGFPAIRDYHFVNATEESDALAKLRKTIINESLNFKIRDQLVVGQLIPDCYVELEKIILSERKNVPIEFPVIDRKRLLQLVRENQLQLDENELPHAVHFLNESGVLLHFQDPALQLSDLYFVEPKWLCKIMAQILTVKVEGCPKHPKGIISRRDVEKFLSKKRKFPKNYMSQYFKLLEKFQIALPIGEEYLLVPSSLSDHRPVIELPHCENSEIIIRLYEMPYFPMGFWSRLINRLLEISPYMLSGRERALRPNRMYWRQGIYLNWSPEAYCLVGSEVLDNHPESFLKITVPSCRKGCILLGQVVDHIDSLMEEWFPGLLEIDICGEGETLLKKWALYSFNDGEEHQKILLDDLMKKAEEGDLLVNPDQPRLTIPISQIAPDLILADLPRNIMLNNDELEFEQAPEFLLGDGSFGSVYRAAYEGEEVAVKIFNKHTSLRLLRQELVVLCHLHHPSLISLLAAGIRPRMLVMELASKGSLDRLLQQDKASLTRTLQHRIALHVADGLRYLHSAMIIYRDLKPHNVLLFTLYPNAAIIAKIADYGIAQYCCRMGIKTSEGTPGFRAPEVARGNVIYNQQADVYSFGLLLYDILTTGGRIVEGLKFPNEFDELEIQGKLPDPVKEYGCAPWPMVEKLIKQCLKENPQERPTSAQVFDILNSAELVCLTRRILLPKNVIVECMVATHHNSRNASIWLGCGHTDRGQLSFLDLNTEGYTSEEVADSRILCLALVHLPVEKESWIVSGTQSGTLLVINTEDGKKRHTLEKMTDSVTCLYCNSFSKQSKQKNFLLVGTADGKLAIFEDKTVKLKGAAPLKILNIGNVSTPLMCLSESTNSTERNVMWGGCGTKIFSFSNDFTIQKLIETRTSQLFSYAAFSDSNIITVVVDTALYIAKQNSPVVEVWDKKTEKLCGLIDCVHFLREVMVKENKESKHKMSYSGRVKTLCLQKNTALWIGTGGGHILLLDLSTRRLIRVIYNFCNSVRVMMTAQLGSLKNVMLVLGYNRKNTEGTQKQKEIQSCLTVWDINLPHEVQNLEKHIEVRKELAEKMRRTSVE
Structure (SMILES),tested on,test,test system,conditions,how to read,quantity,result
COc1cc([C@@H]2O[C@@H](c3cc(OC)c(O[C@@H]4O[C@H](CO)[C@@H](O)[C@H](O)[C@H]4O)c(OC)c3)[C@H](CO)[C@H]2CO)cc(OC)c1O,,Oil Red O,"3T3-L1, mouse","5 µM, day 8",,lipid content,decreased
O=C(CCO)c1ccc(O)cc1,,DPPH radical,,300 µg/mL,,radical scavenging,17.1 ± 0.59%
COc1ccccc1C1CCN(CCC(=O)Nc2ccc(C)c(C)c2)CC1,,locomotor activity in dark,"Danio rerio larvae, 7 dpf, well of 10 larvae","10 µM, minute 1, dark",,third-quartile larval motion,3.2 ± 0.9 pixels/frame
N[C@@H](CNC(=O)N[C@@H](CS)C(=O)NCC(=O)O)C(=O)O,,Y-maze,"mouse C57BL/6, Aβ1–42 i.c.v. model","intranasal, 7.2 mg/mouse (200 mg/kg), started 3 days before Aβ",,spontaneous alternation,64.8 ± 1.3%
CCCCCCCCCCCCCCCC(=O)OCC(CSC[C@H](N)C(=O)N[C@@H](CO)C(=O)N[C@@H](CCCCN)C(=O)N[C@@H](CCCCN)C(=O)N[C@@H](CCCCN)C(=O)N[C@@H](CCCCN)C(=O)NCCCCCC(=O)N[C@@H](CCCCN)C(=O)N[C@@H](CC(C)C)C(=O)N[C@H](C(=O)N[C@@H](Cc1ccccc1)C(=O)N[C@@H](Cc1ccccc1)C(=O)N[C@@H](Cc1ccc2ccccc2c1)C(=O)O)C(C)C)OC(=O)CCCCCCCCCCCCCCC (stereo partly drawn),,,"APP/PS1 transgenic mouse, cortex","intracortical injection, dose not given, 5 d",,Iba1-positive area,14.1% and 15.1% and 17.1% and 14.8%
OC(COCC1COc2ccccc2O1)CN1CCN(c2ccccc2)CC1 (stereo not drawn),,locomotor activity in dark,"Danio rerio larvae, 7 dpf, well of 10 larvae","10 µM, minute 1, dark",,third-quartile larval motion,4 ± 0.8 pixels/frame
Cc1nn(-c2cccc(N)c2)c(=O)c2cnc(Nc3ccc(N4CCNCC4)cc3)nc12,"LRRK2 (Homo sapiens, UniProt Q5S007)","kinase activity, inhibitor, SelectScreen kinase profiling",,,,IC50,> 10 µM
COC1CN([C@H]2CC[C@H]([C@@]3(C)Oc4c(Cl)cc(C(=O)NCc5c(SC)cc(C)[nH]c5=O)c(C)c4O3)CC2)C1,,"RNA-seq, item: PLAG1","human, whole blood","dose not given, 24 h",relative to: pretreatment baseline,log2 fold change,2.33
CCN(CC)CC#CCNc1ccnc2cc(Cl)ccc12,Salmonella typhimurium,mini-Ames test,TA97a,"1000.0 µg/well, with rat liver S9",,revertants per well,11
CN1CCC[C@]1(C)/C=C/S(=O)(=O)NC(=O)Nc1c2c(cc3c1CCC3)CCC2,,,"human, whole blood ex vivo","50 mg twice daily, day 14, 36 h, multiple ascending dose, with: LPS and ATP",,IL-1β inhibition,91.5%
CNS(=O)(=O)Nc1nccc(Cc2c(C)c3ccc(Oc4ncccc4F)cc3oc2=O)c1F,LS-513,cell viability,,7 days,,IC50,0.00848 µM
CC[C@H](C)[C@@H](C(=O)N[C@@H](CC(C)C)C(=O)N[C@@H](CO)C(=O)N[C@@H](CO)C(=O)N[C@H](C(=O)N[C@@H](CCC(=O)O)C(=O)N[C@H](C(=O)NCC(=O)N[C@@H](CO)C(=O)N[C@@H](CC(N)=O)C(=O)N[C@H](C(=O)N1C[C@H](O)C[C@H]1C(N)=O)[C@@H](C)O)C(C)C)[C@@H](C)O)N(C)C(=O)[C@H](C)NC(=O)CN(C)C(=O)[C@H](Cc1ccccc1)NC(=O)[C@H](CO)NC(=O)[C@H](CO)NC(=O)[C@H](CCCNC(=N)N)NC(=O)[C@H](CCC(N)=O)NC(=O)[C@H](CC(C)C)NC(=O)[C@H](Cc1ccccc1)NC(=O)[C@H](CCCC(=O)O)NC(=O)[C@H](C)NC(=O)[C@H](CC(C)C)NC(=O)[C@H](CCCNC(=N)N)NC(=O)[C@H](CCC(=O)O)NC(=O)[C@@H](NC(=O)[C@H](C)NC(=O)[C@@H]1CCCCNC(=O)C[C@H](NC(=O)[C@H](CCCNC(=N)N)NC(=O)CC[C@H](NC(=O)CCCCCCCCCCCCCCCCCCC(=O)O)C(=O)O)C(=O)NCC(=O)N[C@@H]([C@@H](C)O)C(=O)N[C@@H](C)C(=O)N[C@@H]([C@@H](C)O)C(=O)N1)[C@@H](C)O,,,diet-induced obese rats,"subcutaneous, 10 nmol/kg every other day, day 20",relative to: day 0,body weight change,3.8%
CC(C)=CCc1cc(C(=O)/C=C/c2ccc(O)cc2)c(O)cc1O,,"phase I metabolism, substrate",monkey liver microsomes,,,Km,13 ± 2.27 µM
CN(C)C(=O)c1ccnc(N2Cc3cn(Cc4ccc(F)cc4F)nc3C2)n1,,"immunohistochemistry, item: NeuN neuron density","mouse cuprizone diet, corpus callosum","dose not given, unit not given",relative to: cuprizone plus vehicle,Cohen's d effect size,-0.34
CC[C@H](C)[C@@H](C(=O)N[C@@H](CC(C)C)C(=O)N[C@@H](CO)C(=O)N[C@@H](CO)C(=O)N[C@H](C(=O)N[C@@H](CCC(=O)O)C(=O)N[C@H](C(=O)NCC(=O)N[C@@H](CO)C(=O)N[C@@H](CC(N)=O)C(=O)N[C@H](C(=O)N1C[C@H](O)C[C@H]1C(N)=O)[C@@H](C)O)C(C)C)[C@@H](C)O)N(C)C(=O)[C@H](C)NC(=O)CN(C)C(=O)[C@H](Cc1ccccc1)NC(=O)[C@H](CO)NC(=O)[C@H](CO)NC(=O)[C@H](CCCNC(=N)N)NC(=O)[C@H](CCC(N)=O)NC(=O)[C@H](CC(C)C)NC(=O)[C@H](Cc1ccccc1)NC(=O)[C@H](Cc1c[nH]cn1)NC(=O)[C@H](C)NC(=O)[C@H](CC(C)C)NC(=O)[C@H](CCCNC(=N)N)NC(=O)[C@H](CCC(=O)O)NC(=O)[C@@H](NC(=O)[C@H](C)NC(=O)[C@@H]1CSSC[C@H](NC(=O)[C@H](CCCNC(=N)N)NC(=O)CC[C@H](NC(=O)CCCCCCCCCCCCCCCCCCC(=O)O)C(=O)O)C(=O)N[C@@H](CCC(N)=O)C(=O)N[C@@H]([C@@H](C)O)C(=O)N[C@@H](C)C(=O)N[C@@H]([C@@H](C)O)C(=O)N1)[C@@H](C)O,,,male Sprague-Dawley rats,"subcutaneous, 30 nmol/kg single dose, 96 h",,body weight loss,7 ± 0.4%
Oc1cccc(C2NCCc3cc(O)c(O)cc32)c1 (stereo not drawn),,"DPPH scavenging, absorbance",,"30 min, dark",,IC50,22.4 µM
CCOC(=O)C1CCN(CCC(=O)Nc2ccccc2F)CC1,,locomotor activity in dark,"Danio rerio larvae, 7 dpf, well of 10 larvae","10 µM, minute 1, dark",,third-quartile larval motion,0 pixels/frame
Cc1ncsc1-c1ccc(C(C)NC(=O)C2CC(O)CN2C(=O)C(NC(=O)CCCCCCCCCCN2CCCC(Nc3ncc(Cl)c(Nc4ccccc4S(=O)(=O)C(C)C)n3)C2)C(C)(C)C)cc1 (stereo not drawn),22Rv1,"RNA-seq, item: ZNF239 mRNA",,concentration not given,relative to: DMSO,log2 fold change,-1.58
CCC(=O)N[C@@H](C)C(=O)OCC(=O)N[C@@H](C)C(=O)O,,,water,"pH 5, 25 °C",,chain scission rate constant,0.0007 h⁻¹
COc1cc(O)ccc1CCC(c1ccc(O)cc1)c1cc2c(c(C)c1O)OC(c1ccc(O)cc1)CC2 (mixture of isomers),,item: 15-HETE,human whole blood,"3 µM, with: Escherichia coli",,amount,3760 ± 734 pg/mL blood
NC[C@@H](C(=O)Nc1ccc(-c2cn[nH]c2)cc1)c1ccccc1,,tonometry,"Macaca cyclopis, ocular normotensive","ocular, 0.1%, 56 h",,IOP,15.3 mmHg
Cc1ccc(S(=O)(=O)NN)cc1,,"hydrazine ligation kinetics, absorbance",,"concentration not given, 35 s, with: 2-formylphenylboronic acid",,normalised absorbance,0.853
CN1CCCNC(=O)c2cccc(c2)C(=O)NCCCN(C)CCCNc2cccc3c2C(=O)c2cccc(c2C3=O)NCCC1,SAS,"RNA-Seq, item: GSTZ1 mRNA",,"1 µM, 6 h",relative to: untreated cells,log2 fold change,1.27
COc1cccc(OCC(O)CN2CCN(c3ccccc3OC)CC2)c1 (stereo not drawn),,locomotor activity in dark,"Danio rerio larvae, 7 dpf, well of 10 larvae","10 µM, minute 3, dark",,third-quartile larval motion,10 ± 2 pixels/frame
NNC(=O)Cc1ccccc1,,"hydrazine ligation kinetics, absorbance",,"concentration not given, 40 s, with: 2-formylphenylboronic acid",,normalised absorbance,0.72
COc1ccc(N2CCN(CC(O)COc3ccc4ccccc4c3)CC2)cc1 (stereo not drawn),,locomotor activity in dark,"Danio rerio larvae, 7 dpf, well of 10 larvae","10 µM, minute 3, dark",,third-quartile larval motion,4.7 ± 0.8 pixels/frame
CC(C)OCCOCc1ccc(OCC(O)CN(N=O)C(C)C)cc1 (stereo not drawn),Salmonella typhimurium,Ames test,TA1535,"15.8 µg/plate, without metabolic activation",relative to: solvent control,revertant fold increase,0.8 fold
COc1ccc(NC(=O)c2ccc3[nH]c(-c4ccc(N(C)C)cc4)nc3c2)cn1,,,"Lewis lung carcinoma, mice, syngeneic graft, subcutaneous","intraperitoneal, 25 mg/kg daily, day 7",,tumour volume,526 mm3 and 462 mm3 and 542 mm3 and 344 mm3 and 353 mm3
Nc1ncc(-c2cc(-c3cnn(CC(F)(F)F)c3)ncc2F)nc1C(=O)NC1CNCC(F)C1 (stereo not drawn),RIPK2,KINOMEscan,,1 µM,relative to: DMSO control,remaining binding,86%
O=Cc1ccc(CO)n1Cc1ccc(O)cc1,,ABTS radical,,300 µg/mL,,radical scavenging,83.8 ± 2.28%
COc1ccccc1-c1ccncc1C(=O)Nc1nnc(OCc2ccc(Cl)cc2)s1,,,"Brca1 Δ11/Δ11 Polq-/- MEFs, mouse",5 µM,,colony count,35 and 61 and 65
CCOC(=O)NN,,"hydrazine ligation kinetics, absorbance",,"concentration not given, 15 s, with: 2-formylphenylboronic acid",,normalised absorbance,0.582
COc1cc2nc(N3CCN(C(=O)C4CC5(CCOCC5)CO4)CC3)nc(N)c2cc1OC (stereo not drawn),,blood pressure,"spontaneously hypertensive rat, male","oral, 3 mg/kg",,time to maximum BP lowering,60 min
C=CC(=O)N1CC2C(=O)N(CCN(C)C)c3c(c4cc(Cl)c(-c5c(O)cccc5F)nc4n(-c4c(C)ccnc4C(C)C)c3=O)N2CC1C (stereo not drawn),,immunohistochemistry,"BALB/c nude mouse, H23-Luc intracranial tumour, brain tissue","100 mg/kg, 21 days",,Ki-67 level,decreased
C=CC(=O)Nc1cccc(Cn2ncc3cnc(Nc4cnn(CCOC)c4)nc32)c1,PDPK1 human,"binding, KINOMEscan",,100 nM,lower = stronger binding,percent of control,75%
CC(CCC(=O)NCc1ccc(C(=O)NO)cc1)C1CCC2C3C(O)CC4CC(O)CCC4(C)C3CCC12C (stereo not drawn),,item: TUDCA,"PCK rat (Pkhd1 mutant), peripheral blood","oral gavage, dose not given, 5 months",relative to: total bile acids,relative abundance,4.77%
CC1=CC(=O)c2ccccc2C1=O,,,"pancreatic islet cells, mouse","7 µM, 24 h",,dead cells,65.6%
O=C(NCC1OC2CCC=CCCC2O1)c1ccc(F)nc1 (stereo not drawn),,"IEDDA cycloaddition, substrate, stopped-flow spectrophotometry",water/methanol 45:55,"0.5 mM, 298 K, with: 3,6-di(2-pyridyl)-tetrazine 0.05 mM",,observed rate constant kobs,138 ± 2.88 s⁻¹
Oc1cc2c(cc1O)C(c1cccc3[nH]ccc13)NCC2 (stereo not drawn),,"DPPH scavenging, absorbance",,"30 min, dark",,IC50,20.8 µM
CC(=O)[O-].O.O.[O-]c1ccc(Br)cc1C=NCCN1CCOCC1.[Zn+2],,DPPH radical scavenging,,200 µM,,inhibition,52.4%
C=C(NC(=O)c1csc(-c2nc3c(cc2O)-c2nc(cs2)C(=O)NC(C(C)O)C(=O)NC(=C(C)OC)c2nc(cs2)C(=O)NC2c4nc(cs4)C(=O)NC(COC(=O)c4c5c6c(cccc6n4O)COC(=O)C(OC4CC(C)(O)C(N(C)C)C(C)O4)C2OC5)c2nc-3cs2)n1)C(N)=O (stereo not drawn),Streptococcus pneumoniae,,"-4, immunocompromised mice, lung infection","8 mg/kg/day, twice daily, 24 h post-dose",,lung bacterial load,4.03 log CFU/g
CCOC(=O)C1=C(CSC2=NCCS2)NC(=O)NC1c1ccc(C)cc1 (stereo not drawn),,DPPH scavenging,,,,IC50,164 µM

# Excerpt of the above:
Structure (SMILES),tested on,test,test system,conditions,how to read,quantity,result
CN1CCCNC(=O)c2cccc(c2)C(=O)NCCCN(C)CCCNc2cccc3c2C(=O)c2cccc(c2C3=O)NCCC1,SAS,"RNA-Seq, item: GSTZ1 mRNA",,"1 µM, 6 h",relative to: untreated cells,log2 fold change,1.27
CCOC(=O)NN,,"hydrazine ligation kinetics, absorbance",,"concentration not given, 15 s, with: 2-formylphenylboronic acid",,normalised absorbance,0.582
Oc1cc2c(cc1O)C(c1cccc3[nH]ccc13)NCC2 (stereo not drawn),,"DPPH scavenging, absorbance",,"30 min, dark",,IC50,20.8 µM
O=Cc1ccc(CO)n1Cc1ccc(O)cc1,,ABTS radical,,300 µg/mL,,radical scavenging,83.8 ± 2.28%
CCC(=O)N[C@@H](C)C(=O)OCC(=O)N[C@@H](C)C(=O)O,,,water,"pH 5, 25 °C",,chain scission rate constant,0.0007 h⁻¹
